# Experimental data of several laboratories.
# Numbered parts are unrelated; each lists some results of a single study.

# Sample 1 — technique: universal PBM; molecule type: double-stranded DNA, one strand shown; matrix: in vitro; tested at: 600 nM; reading: higher = stronger binding
# Target: Sal-like protein 4, full length isoform A (SALL4, Homo sapiens, UniProt Q9UJQ4, residues 1-1053)
# Sequence of UniProt Q9UJQ4 (whole entry, looked up): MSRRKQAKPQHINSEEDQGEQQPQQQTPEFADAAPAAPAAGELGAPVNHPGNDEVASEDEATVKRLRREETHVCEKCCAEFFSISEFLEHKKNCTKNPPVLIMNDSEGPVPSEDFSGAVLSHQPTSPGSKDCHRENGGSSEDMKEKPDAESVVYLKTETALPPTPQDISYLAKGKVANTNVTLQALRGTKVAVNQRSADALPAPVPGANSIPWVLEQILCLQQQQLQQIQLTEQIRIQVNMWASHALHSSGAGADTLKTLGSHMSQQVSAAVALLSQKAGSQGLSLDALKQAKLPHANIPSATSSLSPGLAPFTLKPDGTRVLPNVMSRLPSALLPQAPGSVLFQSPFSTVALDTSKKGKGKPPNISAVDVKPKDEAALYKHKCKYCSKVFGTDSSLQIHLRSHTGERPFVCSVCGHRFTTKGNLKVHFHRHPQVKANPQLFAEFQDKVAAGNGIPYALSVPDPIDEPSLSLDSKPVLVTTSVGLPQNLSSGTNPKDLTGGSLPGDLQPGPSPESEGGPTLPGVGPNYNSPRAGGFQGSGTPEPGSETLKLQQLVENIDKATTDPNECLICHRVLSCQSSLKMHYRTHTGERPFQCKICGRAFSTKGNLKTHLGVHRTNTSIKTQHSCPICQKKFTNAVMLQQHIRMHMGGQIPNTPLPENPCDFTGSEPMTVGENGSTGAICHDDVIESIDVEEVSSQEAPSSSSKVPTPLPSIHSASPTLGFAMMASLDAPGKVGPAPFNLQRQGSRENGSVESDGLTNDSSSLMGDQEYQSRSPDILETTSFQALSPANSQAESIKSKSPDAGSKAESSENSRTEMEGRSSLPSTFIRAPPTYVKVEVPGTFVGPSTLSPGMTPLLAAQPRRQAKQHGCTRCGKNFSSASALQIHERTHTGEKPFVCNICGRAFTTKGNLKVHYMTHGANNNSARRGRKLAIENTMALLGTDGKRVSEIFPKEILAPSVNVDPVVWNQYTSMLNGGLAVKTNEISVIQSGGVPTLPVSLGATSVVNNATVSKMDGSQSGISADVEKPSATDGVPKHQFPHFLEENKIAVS
# Setting: 8-mer, flanks averaged, mean of replicates
Oligonucleotide,E-score
AATCAGGC,-0.0751
AAAACCGA,0.0134
CAGCGGAG,-0.288
ACACAGAA,0.0293
AAGTCGAG,-0.0909
AGAATTCC,0.0043
AATCAAAG,0.0464
GACCTTTA,0.074
CAATTGGA,-0.0535
AGAACCCA,-0.17
GATGGTCA,-0.0569
GACTAATC,0.0451
GGGTCTGA,-0.227
ATCACCTA,-0.0642
AATACCTA,0.284
AAGTGCAC,-0.00719
ACAACTCT,0.0692
GTCCGAGA,-0.0617
ACTAATAC,0.218
CCCAACGA,-0.0611

# Sample 2 — technique: RNAcompete; molecule type: RNA; matrix: in vitro; tested at: 20 nM; setting: 7-mer, probes averaged, single round; relative to: mean of 7-mers; reading: higher = stronger binding
# Target: PABPC1L2, full length, GST fusion (mouse, UniProt A0ABA7IW68)
# Target sequence (chain): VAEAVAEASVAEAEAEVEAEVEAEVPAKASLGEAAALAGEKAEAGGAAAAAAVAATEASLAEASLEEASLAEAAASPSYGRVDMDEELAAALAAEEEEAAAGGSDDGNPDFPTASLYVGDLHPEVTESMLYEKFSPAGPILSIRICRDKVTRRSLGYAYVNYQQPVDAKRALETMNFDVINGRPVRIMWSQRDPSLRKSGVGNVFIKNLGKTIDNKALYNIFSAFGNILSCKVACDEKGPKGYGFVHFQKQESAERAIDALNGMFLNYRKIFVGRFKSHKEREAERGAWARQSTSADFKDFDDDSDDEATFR
Oligonucleotide,7-mer Z-score
UUGCAGU,-0.244
CUGGCCC,-0.425
GUUGAGG,0.000733
AGUGCUC,-0.374
CCUGGGG,-0.0536
GGUUAAA,0.447
UCACGAG,-0.206
GUCAAUU,-0.209
AUUCCCC,-0.499
CAGACCU,-0.0754
UGACGAG,0.00436
GGAGUCG,-0.0736
GGACGUA,0.122
AUGGGGU,0.289
ACGACAC,-0.00108
UGUGAUC,-0.286
CGGGGCC,-0.151
CUCUAGC,-0.277
CUAGCCU,-0.4
AACCGCC,-0.229
GCGUACG,-0.284

# Sample 3 — technique: protein binding microarray; molecule type: double-stranded DNA, one strand shown; matrix: in vitro; tested at: not given; relative to: not given; reading: higher = stronger binding
# Target: Histone acetyltransferase KAT6A, winged helix 1, GST fusion (KAT6A, Homo sapiens, UniProt Q92794, residues 1-85)
# Setting: 8-mer, flanks averaged, mean of 2 arrays, mostly near background
# Target sequence (chain): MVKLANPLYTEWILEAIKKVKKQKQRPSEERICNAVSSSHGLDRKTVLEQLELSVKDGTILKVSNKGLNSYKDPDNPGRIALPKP
Oligonucleotide,E-score
AACGATCC,-0.0265
GTTATCGA,-0.0249
CCAATCCC,-0.0636
ACACCCCC,-0.125
ACAAGGTC,-0.094
CTAGTTAC,0.0773
CACCAACA,-0.157
ACCGAATC,0.0815
AGCGGGAC,0.327
CAAAAATA,-0.109
ATTAGGTG,-0.138
AAAACGGC,0.278
CGCTTGCA,0.0515
AATTGGAG,-0.215
CGGACGAC,0.166
CAAGCTGA,-0.219
CCGTCCGC,0.442
ATGAGCGA,0.179
ATAGCAAT,-0.305
AAGGGTGT,-0.191
CAATGTGC,0.027
AGATCTAT,-0.0713
ATTCTCTA,-0.106
TTACCGAA,0.0122

# Sample 4 — technique: RNA Bind-n-Seq; molecule type: RNA; matrix: in vitro; tested at: 365 nM; relative to: no-protein control; reading: higher = stronger binding
# Target: RNA binding protein fox-1 homolog 2, RRM domain, GST-SBP tag (RBFOX2, Homo sapiens, UniProt O43251-10, residues 100-194)
# Setting: natural RNA segment, single round, ends assumed
# Constant ends, left off below: GGGAGUUCUACAGUCCGACGAUC … UGGAAUUCUCGGGUGCCAA
# Target sequence (chain): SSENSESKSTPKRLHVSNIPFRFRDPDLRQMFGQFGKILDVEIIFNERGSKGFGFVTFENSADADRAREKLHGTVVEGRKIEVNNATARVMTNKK
Oligonucleotide,RBNS enrichment (R)
UCUGGGAAAGGGAGCUGGCCUAUUGCCCACCACCUGUUGUCAGUAGGUUAGGAGCUGUUGACUCAGGAUGAGGAAGUAUGGUCUUUAAAAAAAACAAAAUAUAUUUUAGA,1.02
CGUGGUGGCAUGUCCCUGUAAUCUCAGCUACCCGGGAGGCUCAGGCAGGAGAAUCGCUGGAACCCAGGAGGCAGAGGCUGCCGUUAGCUGAGAUCGUGCUCCUGCACUCC,0.978
CUGAUUUGAUUUUACGUAUCUUCUAUCUACGCCCUUCCUGUGCCUGUGACUCUCCCCAAAUUGCCCUGUUGCCUUGAGCUCUUCUGAGCUAAGGCAGCCUUCAGUCCCUA,0.346
GGCUGGGUUUGAAAAGGCAAAAAGACAAGACAUCCAGGCAGGGCUUCUCUUUUCUUUCCACAAGGGACAAGAGCUUGGCUUAUUUAGGCUACAGCCCUGCUGCUGCUCCC,0.723
AACAUCUUUGUACAUUUAAGUCUGUAUUAUAAUAAGCAAAAAGAUUGUGUGUAUGUAUGUUUAAUAUAACAUGACAGGCACGAGGACGCCUGCCUUUUAAGAGGCAGUUC,0.661
UGCAUGAGCCAUGAAUUGGGCUAGAGGAAGCCUUGUCAUCAGAUACUGACCAUAGCAUGUGACACUCAGACUUCUCAGCUCCUGUGCAUCCCAGUGUAGGCUCUGAGGCC,11.1
CCACCCUUCACUGAGUUCUCUGGAUUUGUUCUCAGUGCCUUAGCAACGAAAACCUGUGCUUGUGUGUGUGUGGCGGCGGGGAGGGAGGAUCCUGUUUCCCACCUCCUUCU,0.705
UUGCUAAUUCCUGUCUGGUUCCUCUCUGGCAGAGCUUGGGAGGCACAAGAGAUCCUUUUCUCUUUCCAAACAGCUUUGCACAAUCUAGAAAUUCAGUGGGUUUUUUUUUU,0.391
UGCCCCCUUUUUACAACUGAAUUCAUCUAGCAUUUUCAUAUGGUGGAUUUAAACUGCUUAAAAAAGAAAAUGUGACCGGCUCUCCUGCUUGGGUCUCAGGGGAGAUAUGC,4.58
CUGCAGUUGGGAACGGUGAUCUUCUUGAAUGAUGUUUCAGUGUGCAAAAACUAUAGAGCCUGUCAGCACCAAAGCUGACAGAAGUUAUACCUUACUCCUUUCCUUUCCCC,0.605
CAGUCACUAAGAGCAGUGGCUAACCUCAUCGAAGUUGGAAGGAAUGUUUUUAAAAUUACCUCUUCGAGCCUGAAUACAAAGAAUAAAAGAAUAAAAGAAUUCUUUUAAUU,0.768
AAAUGGAUUUAUAGAAUAUUUGUAAAUCUAUUUUUAGUGUUUGUUCGUUUUUUUAACUGUUCAUUCCUUUGUGCAGAGUGUAUAUCUCUGCCUGGGCAAGAGUGUGGAGG,0.532

# Sample 5 — technique: RNA Bind-n-Seq; molecule type: RNA; matrix: in vitro; tested at: not given; relative to: input RNA pool; reading: higher = stronger binding
# Target: RING finger protein unkempt homolog, zinc fingers 1-6, GST-SBP tag (UNK, Homo sapiens, UniProt Q9C0B0, residues 30-357)
# Setting: RNA with constant flanks, human and mouse sites, ends assumed
# Constant ends, left off below: GGGAGUUCUACAGUCCGACGAUC … CAACAGAGGAUUGAGCAUCA
# Residues (chain): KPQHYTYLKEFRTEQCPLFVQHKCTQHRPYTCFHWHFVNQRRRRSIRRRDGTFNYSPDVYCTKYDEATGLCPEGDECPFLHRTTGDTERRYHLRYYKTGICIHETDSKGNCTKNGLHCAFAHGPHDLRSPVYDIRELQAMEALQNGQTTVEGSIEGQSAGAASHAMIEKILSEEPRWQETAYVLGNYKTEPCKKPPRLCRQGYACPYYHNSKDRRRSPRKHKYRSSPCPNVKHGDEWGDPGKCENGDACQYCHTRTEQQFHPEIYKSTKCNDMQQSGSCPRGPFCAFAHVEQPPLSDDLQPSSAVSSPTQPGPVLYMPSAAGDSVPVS
Oligonucleotide,bound/input enrichment [ratio]
UGUGGCUUUGGUGGGGUCUUAAGUUGUGGGCUGACACACACUGCUGUUGUUCCCCUGGACUUAGUAAAGUGCCGCAUGCAGGUGGACCCUCAGAAGUACAAAGGCAUAUUUAAUGGAUUC,0.0954
UAUGGCUUAAAAUGCUUUUGGAGUUUAUUUCUCAAAAUUAAAAUCUGGUCACAUGAGCUUUAGUUUGUUUUCUGGUUUAAAAAAUAAAAAGGUUUCUCUUAACAGUAUUUCCAGUGACAA,0.289
GCGGUGGUGGUGGAGAAGGACGCAGUGUUUAUUCCAGCAGGGUGGGAUAAUGAUAAGAAAAUAGGAAUAUUACAUGAAAAUUUUCAGACUUUGAAAGUAGAAGAUAAUUUUGAAGACAUC,3.15
UUGGGCUUCUGGAGGGCCUCUCUCGCCUGCCCGACGUCCUGCAAAUGCAGUUCCGCUAGGAUUUGGUGUACUGAGCCUUCUCCAGGCAUCGUGGCAUUCCCGAGGUUGGAACCUAACAGC,0.0607
AUCUGUGGCAUUGGCUGGCAUUUGGUUGGAAACUCAUGUUUGAAAAUUACUACUGCCAAGGAGAAUUAUGACAAUGCUAAAUUGUUCUGUAGGAACCACAAUGCCCUUUUGGCUUCUCUU,0.248
UUUUUUUUUUAAUCAGUCAGAAAAAGGAUACUGGAACUUGUUGUAUGUAACAGCAUAUUAAACUGGAGGCAGUGAUAAAUCAGCUACACAGGUAAAUUGUGUUAAAAUAAUGUUUAAGAU,0.26
AAGGAAACAAUGUUUAGUAGUUUGAGAAGCCACGGGAUGUACAGUUUGGUUAUCAGCCUUAAUAGGCUACACUAGUGGUAGGUAGUGUAGACAGAGAUGUAAAUGUGCUGUUCCAAAACU,0.829
UACAGCUUGCCUUUUUAAUGUUAGUCACAAUGUUUUUGUGGUUUGAAGUUUAGUUUAAUGUUAGUGCAGUGACGGGAAAUACACAUUAUGCUAAUGUUGAUGACAGAAUUUAUUUGGUUG,1.17
GCUUUGACCCAGCAACACCCUCCAGUUACCAAUGGUGAUACUGUAAAAGGCCAUGGCAGUGGAUUGGUUAGGACUCAGUCAGAAGAGUCUCGCCCACAGUCCUUGCAGCAGCCAGCCACC,0.114
CUGCACGAGUGCCCCCACAUCCCCACCCCUGUGUGCAUUGGGCACCGGGAUGCACCCUCCUUCUCAUCCCCACCACGCCAGGCUCCUGAGCCAUCCCUCUUCUUCCAGGAUCCCCCUGGA,0.283
AUUGAGAAAUAAUACUAUCUUCUACGUUACUUGUGUAAAAGGUGUGUCUGAUUGGACUUGUUUAGAAUUCCUUUUAAAACUAACUCAUUAGAUUGAAGGUAUAUUUUCUAAUUACAGUUC,0.782

# Sample 6 — technique: protein-binding microarray; molecule type: double-stranded DNA, one strand shown; matrix: in vitro; tested at: not given; reading: higher = stronger binding
# Target: Protein C-ets-1 (ETS1, Homo sapiens, UniProt P14921, residues 1-441, K379A, full length assumed)
# Setting: k-mer, scored over probes, only values ≥0.25
# Construct (chain): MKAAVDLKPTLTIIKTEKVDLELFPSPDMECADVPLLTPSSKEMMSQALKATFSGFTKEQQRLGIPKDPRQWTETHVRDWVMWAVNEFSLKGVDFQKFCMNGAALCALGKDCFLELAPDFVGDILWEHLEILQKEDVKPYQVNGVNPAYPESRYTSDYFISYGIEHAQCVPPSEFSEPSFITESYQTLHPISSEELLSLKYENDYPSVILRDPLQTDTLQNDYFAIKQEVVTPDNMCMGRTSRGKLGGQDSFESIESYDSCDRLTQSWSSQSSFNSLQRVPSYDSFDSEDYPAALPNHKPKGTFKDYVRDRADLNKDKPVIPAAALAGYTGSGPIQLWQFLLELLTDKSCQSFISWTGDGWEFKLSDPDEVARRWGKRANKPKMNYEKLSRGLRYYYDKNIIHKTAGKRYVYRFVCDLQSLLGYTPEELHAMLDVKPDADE
Oligonucleotide,E-score
ACCGGAGC,0.341
CTTTTACC,0.267
CCCGGAAG,0.366
ATACACAT,0.26
CCCGGTCC,0.305
GCCGGTGA,0.331
AACCGGCA,0.292
CCGGAACG,0.408
GACACACC,0.254
ACCGGGAG,0.447
CATTACGA,0.276
TGATATCA,0.287
ATTTCCGG,0.474
CCGTCGGC,0.315
CGCAACCG,0.322
ACCACATA,0.275
TTTACAAA,0.256
CGGTCTGC,0.269
ATACCGCC,0.252
CTATTGTA,0.262
ATGTCACA,0.278
AGTCAGAT,0.266
CCGGGGTA,0.299

# Repeated from above (sample 2):
Oligonucleotide,7-mer Z-score
AUUCCCC,-0.499
GUUGAGG,0.000733
GCGUACG,-0.284
UGUGAUC,-0.286
GGAGUCG,-0.0736
UCACGAG,-0.206
CCUGGGG,-0.0536
AGUGCUC,-0.374
CUCUAGC,-0.277
GGACGUA,0.122
